# Results pooled from the literature.
# Numbers after ± are the reported error.
# HLA class I histocompatibility antigen, A alpha chain allele A*24:02: HLA class I histocompatibility antigen, A alpha chain, allele A*24:02 (Homo sapiens, UniProt P04439)
# HIPK2: Homeodomain-interacting protein kinase 2 (HIPK2, Homo sapiens, UniProt Q9H2X6)
Compound,tested on,test,system,conditions,how to read,measurement,result
CC[C@H](C)[C@H](NC(=O)[C@@H](NC(=O)[C@H](CCCCN)NC(=O)[C@H](Cc1c[nH]cn1)NC(=O)[C@H](Cc1ccc(O)cc1)NC(=O)[C@H](CCSC)NC(=O)[C@@H](N)CCCNC(=N)N)C(C)C)C(=O)N[C@H](C(=O)N[C@@H](Cc1ccccc1)C(=O)O)[C@@H](C)O,"HLA class I histocompatibility antigen, A alpha chain allele A*24:02",binding,,,,IC50,502 nM
CN(C(=O)n1cnc(-c2ccc[n+]([O-])c2)c1)C1CCCCC1,HIPK2,"kinase activity, inhibitor",,"10 µM, with: myelin basic protein substrate",,inhibition,3%
O=C(c1ccc(Cl)cc1)N1CCN2C(=O)N(OC(=O)N3CCOc4ccccc43)C(=O)C2C1 (stereo not drawn),"NCEH1 (Homo sapiens, UniProt Q6PIU2)",MS-based ABPP,SW-620 conditioned medium,"10 µM, 1 h, 37 °C, mean protein ratio",baseline: compound over DMSO,probe labelling ratio,1.31
COc1ccc(F)cc1C(=O)NCc1ccc(-c2nn([C@@H](C)C(F)(F)F)c(N)c2C(N)=O)cc1,"FYN (Homo sapiens, UniProt P06241)","target engagement, NanoBRET",HEK293,,baseline: FYN over BTK,selectivity ratio,> 7600
CC(C)C[C@H](NC(=O)C[C@H](O)[C@H](CC(C)C)NC(=O)[C@H](Cc1c[nH]cn1)NC(=O)CNC(=O)[C@@H](NC(=O)[C@H](C)NC(=O)[C@H](Cc1c[nH]c2ccccc12)NC(=O)[C@H](CCC(N)=O)NC(=O)[C@@H](Cc1ccccc1)NC(=O)CCNC(=O)CCSc1nnc(NCCC(=O)NCCC(=O)NCCCC[C@H](NC(=O)N[C@@H](CCC(=O)O)C(=O)O)C(=O)O)c2c1CCC1C(CC2)C1COC(=O)NCCNC(=O)CC[C@H](C(=O)O)N1CCN(CC(=O)O)CCN(CC(=O)O)CC1)C(C)C)C(N)=O (stereo partly drawn) [gallium-68 labelled],,,"athymic NMRI nude mouse, stomach","intravenous, dose not given, 2 h, with: bombesin 480 nmol (GRPR blocking)",,tissue uptake,0.07 %ID/g
CN1CCN(c2cc(-c3ccncc3)c(-c3ccc4ccccc4c3)nn2)CC1,"ADORA2A (Homo sapiens, UniProt P29274)","agonist, FLIPR calcium",,12.5 µM,,activation,-1.7%
[2H]c1c([2H])c([C@]2([2H])CCCN2C(=O)C(C)(C)Oc2ccc3cn[nH]c3c2)c([2H])c([2H])c1C([2H])([2H])[2H],"EIF2AK2 (Homo sapiens, UniProt P19525)",KINOMEscan,,1 µM,baseline: DMSO control,remaining binding,98%
CN(CC(=O)O)C(=N)NP(=O)(O)O,"CKMT1A (Homo sapiens, UniProt P12532, E265Q)","substrate, Kinase-Glo luminescence",,"pH 7.0, reverse reaction, E227Q mutant, with: second substrate in excess",,Km,190 ± 10 µM
O=C(Nc1cnccc1Cl)N1CCN(Cc2ccc3c(c2)OC(F)(F)O3)CC1,"CAMK4 (Homo sapiens, UniProt Q16566)","enzyme activity, inhibitor",,"50 µM, with: autocamtide-2",,inhibition,4%
C[C@H]1CN(c2n[nH]c3nc(N[C@H]4CC[C@H](NS(=O)(=O)CCC(F)(F)F)CC4)ncc23)CCO1,"Cysteine--tRNA ligase, cytoplasmic (Homo sapiens, UniProt P49589)","Kinobeads competition, measured: CARS",,"0.16 µM, unit not given",baseline: vehicle,remaining binding,1.09
COc1ccc(N2C(=O)N(c3c(C)cccc3Cl)Cc3cnc(Nc4ccc(C5CCN(C)CC5)cc4OC)nc32)nc1,"CSK (Homo sapiens, UniProt P41240)",kinase activity,,0.5 µM,,inhibition,76%
CC[C@H](C)[C@H](NC(=O)[C@@H](N)CCCNC(=N)N)C(=O)N[C@@H](Cc1ccccc1)C(=O)NCC(=O)N[C@@H](Cc1c[nH]cn1)C(=O)N1CCC[C@H]1C(=O)N[C@@H](Cc1c[nH]cn1)C(=O)N[C@@H](CC(C)C)C(=O)N[C@@H](Cc1ccccc1)C(=O)O,"HLA class I histocompatibility antigen, A alpha chain allele A*24:02",binding,,,,IC50,99 nM
COc1cc(Nc2ncc(F)c(Nc3ccc4c(n3)NC(=O)C(C)(C)O4)n2)cc(OC)c1OC,"STK26 (Homo sapiens, UniProt Q9P289)","binding, KINOMEscan",,"10 µM, MST4 kinase",,inhibition,51%
COc1cc(-c2[o+]c3cc(O)cc(O)c3cc2O[C@@H]2O[C@H](CO)[C@@H](O)[C@H](O)[C@H]2O)cc(OC)c1O,"Albumin (ALB, Homo sapiens, UniProt P02768)",van't Hoff analysis,,concentration not given,,binding enthalpy change,-1.75 kcal/mol
O=C(Nc1cccnn1)N1CCC(=Cc2cccc(Oc3ccc(C(F)(F)F)cn3)c2)CC1,HIPK2,"kinase activity, inhibitor",,"50 µM, with: myelin basic protein substrate",,inhibition,-9%
